# Measured values gathered from unrelated publications.
# Numbered parts are unrelated; each lists some results of a single study. Numbers after ± are the reported error.
# Sequence of UniProt P03692 (whole entry, looked up): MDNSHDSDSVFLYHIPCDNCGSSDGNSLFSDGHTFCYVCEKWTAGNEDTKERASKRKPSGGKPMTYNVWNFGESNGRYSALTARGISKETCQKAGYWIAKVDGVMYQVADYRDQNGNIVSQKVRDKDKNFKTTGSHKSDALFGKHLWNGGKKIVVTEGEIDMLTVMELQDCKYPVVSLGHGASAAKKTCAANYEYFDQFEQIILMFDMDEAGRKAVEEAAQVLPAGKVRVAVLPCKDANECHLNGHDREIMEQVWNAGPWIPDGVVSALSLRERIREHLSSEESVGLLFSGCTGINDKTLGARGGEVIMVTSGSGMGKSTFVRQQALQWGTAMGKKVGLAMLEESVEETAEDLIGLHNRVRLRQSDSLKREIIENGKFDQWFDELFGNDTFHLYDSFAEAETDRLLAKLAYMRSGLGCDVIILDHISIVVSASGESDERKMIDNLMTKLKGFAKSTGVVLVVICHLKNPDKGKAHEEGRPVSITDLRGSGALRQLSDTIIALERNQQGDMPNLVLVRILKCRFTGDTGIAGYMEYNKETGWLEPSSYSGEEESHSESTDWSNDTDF

# Sample 1 — technique: EMSA; form: double-stranded DNA, one strand shown; library: dsDNA
# Target: icaR full length assumed (Staphylococcus epidermidis, UniProt Q5HKQ1)
# Residues (chain): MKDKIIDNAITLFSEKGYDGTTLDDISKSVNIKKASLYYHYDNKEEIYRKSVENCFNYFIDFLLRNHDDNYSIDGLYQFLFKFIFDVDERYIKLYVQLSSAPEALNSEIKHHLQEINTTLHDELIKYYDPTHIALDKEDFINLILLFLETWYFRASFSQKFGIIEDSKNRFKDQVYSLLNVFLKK
Strand,binding
TATGCTTTACAACCTAACTAACGAAAGG,no binding
CCTAACTAACGAAAGGTAGGTGAAAAAA,binds
ACAACCTAACTAACGTTAGTTAGGTTGT,binds
AACCTAACTAACGTTAGTTAGGTT,binds
GATTAGCATATGCTTTACAACCTAACTA,no binding

# Other studies, line by line
# mwoIR full length assumed S310E: mwoIR full length assumed S310E (Methanothermobacter wolfeii, UniProt O59646)
# Sequence of UniProt O59646 (whole entry, unmodified, looked up): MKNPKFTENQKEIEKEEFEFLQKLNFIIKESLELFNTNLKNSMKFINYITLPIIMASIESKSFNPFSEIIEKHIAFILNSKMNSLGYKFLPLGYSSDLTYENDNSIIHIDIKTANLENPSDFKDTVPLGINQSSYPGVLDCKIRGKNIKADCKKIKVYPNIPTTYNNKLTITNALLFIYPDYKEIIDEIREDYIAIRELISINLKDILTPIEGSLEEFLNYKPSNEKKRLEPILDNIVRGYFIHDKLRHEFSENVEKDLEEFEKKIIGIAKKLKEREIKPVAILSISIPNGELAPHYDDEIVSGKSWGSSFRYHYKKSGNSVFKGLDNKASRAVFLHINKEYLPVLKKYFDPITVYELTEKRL
Strand,target,technique,form,setting,with,endpoint,value
GACAGTGCGATCTCCGCGACAGT (dsDNA),"mwoIR full length assumed (Methanothermobacter wolfeii, UniProt O59646)",filter binding,"double-stranded DNA, one strand shown",,Ca2+ 10 mM,Kd,0.00734 ± 0.00166 nM
CGTAATCTGCAGGCATGGTGAATTT (ssDNA),"gene 4 protein primase domain, 1-271 (Escherichia phage T7, UniProt P03692)",SPR,single-stranded DNA,,preformed ACCA RNA,binding,binds
GACAGTGCTATCTCAGCGACAGT (dsDNA),mwoIR full length assumed S310E,filter binding,"double-stranded DNA, one strand shown",,Ca2+ 10 mM,Kd,46 ± 4.4 nM
CGTAATCTGCAGGCATGGTCAATTT (ssDNA),"gene 4 protein RNA polymerase domain, 64-271 (Escherichia phage T7, UniProt P03692)",SPR,single-stranded DNA,,"ATP 0.2 mM, CTP 0.2 mM",binding,no binding
GACAGTGCCATCTCGGCGACAGT (dsDNA),"mwoIR full length assumed S310R (Methanothermobacter wolfeii, UniProt O59646)",filter binding,"double-stranded DNA, one strand shown",,Ca2+ 10 mM,Kd,0.305 ± 0.0566 nM
ATAATTAACTAAACTTAATTAA (dsDNA),"Manganese transport regulator 1-215 (Streptococcus pyogenes, UniProt A0A0H2UTK0)",fluorescence polarization,"double-stranded DNA, one strand shown",stoichiometry titration,,binding,binds
GACAGTGCAATCTCTGCGACAGT (dsDNA),mwoIR full length assumed S310E,filter binding,"double-stranded DNA, one strand shown",,Ca2+ 10 mM,Kd,29.7 ± 13.1 nM

# Excerpt of the above (other studies, line by line):
Strand,target,technique,form,setting,with,endpoint,value
CGTAATCTGCAGGCATGGTCAATTT (ssDNA),"gene 4 protein RNA polymerase domain, 64-271 (Escherichia phage T7, UniProt P03692)",SPR,single-stranded DNA,,"ATP 0.2 mM, CTP 0.2 mM",binding,no binding
GACAGTGCGATCTCCGCGACAGT (dsDNA),"mwoIR full length assumed (Methanothermobacter wolfeii, UniProt O59646)",filter binding,"double-stranded DNA, one strand shown",,Ca2+ 10 mM,Kd,0.00734 ± 0.00166 nM
